Earlier results, collected from citations in different studies.
Each line is one published result; not all experiments were run side by side. Numbers after ± are the reported error.

O=C(NC[C@H]1CN(c2ccc(N3CCOCC3=O)cc2)C(=O)O1)c1ccc(Cl)s1  half-life (in vivo): 7 to 11 h
O=C(Nc1ccc(-c2nc(-c3ccc(Cl)cc3)no2)cc1)C1CC(=O)N(Cc2ccco2)C1 (stereo not shown)  half-life (metabolic stability; rat liver microsomes): 0.183 h
CC[C@H](C)[C@H](NC(=O)[C@H](CO)NC(=O)[C@H](Cc1ccc(O)cc1)NC(=O)[C@H](CC(=O)O)NC(=O)[C@H](CO)NC(=O)[C@@H](NC(=O)[C@H](Cc1ccccc1)NC(=O)[C@@H](NC(=O)CNC(=O)[C@H](CCC(=O)O)NC(=O)[C@H](C)NC(=O)[C@@H](N)Cc1ccc(O)cc1)[C@@H](C)O)[C@@H](C)CC)C(=O)N[C@@H](C)C(=O)N[C@@H](CCSC)C(=O)N[C@@H](CC(=O)O)C(=O)N[C@@H](CCCCN)C(=O)N[C@H](C(=O)N[C@@H](Cc1c[nH]cn1)C(=O)N[C@@H](CCC(N)=O)C(=O)N[C@@H](CCC(N)=O)C(=O)N[C@@H](CC(=O)O)C(=O)N[C@@H](Cc1ccccc1)C(=O)N[C@H](C(=O)N[C@@H](CC(N)=O)C(=O)N[C@@H](Cc1c[nH]c2ccccc12)C(=O)N[C@@H](CC(C)C)C(=O)N[C@@H](CC(C)C)C(=O)N[C@@H](C)C(=O)N[C@@H](CCC(N)=O)C(=O)N[C@@H](CCCCN)C(=O)NCC(=O)N[C@@H](CCCCN)C(=O)N[C@@H](CCCCN)C(=O)N[C@@H](CC(N)=O)C(=O)N[C@@H](CC(=O)O)C(=O)N[C@@H](Cc1c[nH]c2ccccc12)C(=O)N[C@@H](CCCCN)C(=O)N[C@@H](Cc1c[nH]cn1)C(=O)N[C@@H](CC(N)=O)C(=O)N[C@H](C(=O)N[C@H](C(=O)N[C@@H](CCC(N)=O)C(=O)O)[C@@H](C)O)[C@@H](C)CC)C(C)C)[C@@H](C)CC  half-life (in vivo; degradation by DPP4): 0.0833 to 0.117 h
CCOc1cc2ncc(C#N)c(Nc3ccc(OCc4ccccn4)c(Cl)c3)c2cc1NC(=O)/C=C/CN(C)C  half-life (in vitro, with: glutathione): ~0.5 h
CC#CCn1c(N2CCC[C@@H](N)C2)nc2c1c(=O)n(Cc1nc(C)c3ccccc3n1)c(=O)n2C  half-life: 110 to 130 h
CNC[C@H](O)[C@@H](O)[C@H](O)[C@H](O)CO.CNC[C@H](O)[C@@H](O)[C@H](O)[C@H](O)CO.O=C([O-])CN(CCN(CC(=O)[O-])CC(=O)O)CCN(CC(=O)[O-])CC(=O)O.[Gd+3]  half-life (0.1 mmol/kg): 1.51 ± 0.28 h
CC[C@H](C)CCCCC(=O)N[C@@H](CCN)C(=O)N[C@H](C(=O)N[C@@H](CCN)C(=O)N[C@H]1CCNC(=O)[C@H]([C@@H](C)O)NC(=O)[C@H](CCN)NC(=O)[C@H](CCN)NC(=O)[C@H](CC(C)C)NC(=O)[C@@H](Cc2ccccc2)NC(=O)[C@H](CCN)NC1=O)[C@@H](C)O  half-life (healthy Chinese subjects; 0.75 mg/kg single dose): 5.44 ± 0.741 h
O=C(N/N=C/c1ccccc1O)c1ccncc1  half-life (rabbit; intravenous, dose not given): 0.3 h
CNC[C@H](O)[C@@H](O)[C@H](O)[C@H](O)CO.O=C([O-])CN1CCN(CC(=O)[O-])CCN(CC(=O)O)CCN(CC(=O)[O-])CC1.[Gd+3]  half-life (0.1 mmol/kg): 2.04 ± 0.72 h
CCCCCCCCCCCCCCCC(=O)NCCO  half-life (rat liver homogenate): ~0.417 h
CN1CC[C@@H](c2c(O)cc(O)c3c(=O)cc(-c4ccc(C(F)(F)F)cc4Cl)oc23)[C@@H]1CO  half-life (patients with solid tumours): 28 h
CNC[C@H](O)[C@@H](O)[C@H](O)[C@H](O)CO.CNC[C@H](O)[C@@H](O)[C@H](O)[C@H](O)CO.O=C([O-])CN(CCN(CC(=O)[O-])CC(=O)O)CCN(CC(=O)O)C(COCc1ccccc1)C(=O)[O-].[Gd+3] (stereo not shown)  half-life (0.1 mmol/kg): 2.06 ± 0.91 h
Nc1cc(C(F)(F)F)c(-c2nc(N3CCOCC3)nc(N3CCOCC3)n2)cn1  GI50 (PA-1): 612 nM

Some of these lines once more:
O=C(N/N=C/c1ccccc1O)c1ccncc1  half-life (rabbit; intravenous, dose not given): 0.3 h
CC#CCn1c(N2CCC[C@@H](N)C2)nc2c1c(=O)n(Cc1nc(C)c3ccccc3n1)c(=O)n2C  half-life: 110 to 130 h
